Published values of several laboratories.
Parts stem from different laboratories: compare values within a part only. Positions count from the first letter of the parent shown.

Series 1
Target: Sal-like protein 4, full length isoform A (SALL4, Homo sapiens, UniProt Q9UJQ4, residues 1-1053)
Sequence of UniProt Q9UJQ4 (whole entry, looked up): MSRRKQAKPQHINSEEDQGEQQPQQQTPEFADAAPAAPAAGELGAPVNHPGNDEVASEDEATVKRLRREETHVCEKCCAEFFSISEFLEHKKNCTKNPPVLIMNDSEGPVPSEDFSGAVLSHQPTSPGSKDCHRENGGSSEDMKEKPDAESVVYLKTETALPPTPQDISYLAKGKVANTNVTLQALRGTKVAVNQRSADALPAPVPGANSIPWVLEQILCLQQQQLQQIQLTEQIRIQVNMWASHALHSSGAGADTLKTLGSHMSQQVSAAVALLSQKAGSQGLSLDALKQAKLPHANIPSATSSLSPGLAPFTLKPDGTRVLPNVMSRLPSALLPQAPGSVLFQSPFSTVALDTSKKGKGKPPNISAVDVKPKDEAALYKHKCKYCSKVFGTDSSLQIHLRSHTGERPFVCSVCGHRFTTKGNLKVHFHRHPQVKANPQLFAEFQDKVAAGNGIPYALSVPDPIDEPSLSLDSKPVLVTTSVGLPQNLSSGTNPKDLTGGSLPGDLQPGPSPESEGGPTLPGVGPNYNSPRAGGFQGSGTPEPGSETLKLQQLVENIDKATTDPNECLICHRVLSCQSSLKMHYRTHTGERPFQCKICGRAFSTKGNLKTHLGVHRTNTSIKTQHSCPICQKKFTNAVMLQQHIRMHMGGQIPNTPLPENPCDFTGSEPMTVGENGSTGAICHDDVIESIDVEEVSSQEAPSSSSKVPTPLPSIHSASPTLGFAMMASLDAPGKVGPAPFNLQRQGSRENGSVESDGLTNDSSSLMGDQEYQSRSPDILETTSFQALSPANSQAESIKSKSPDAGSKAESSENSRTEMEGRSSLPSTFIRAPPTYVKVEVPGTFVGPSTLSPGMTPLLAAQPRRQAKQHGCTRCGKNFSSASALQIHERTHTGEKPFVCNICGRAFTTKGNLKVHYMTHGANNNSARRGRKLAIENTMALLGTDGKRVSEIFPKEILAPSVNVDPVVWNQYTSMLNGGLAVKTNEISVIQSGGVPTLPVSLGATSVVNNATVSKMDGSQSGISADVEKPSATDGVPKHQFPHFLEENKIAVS
Method: universal PBM
Molecule type: double-stranded DNA, one strand shown
Medium: in vitro
Tested at: 600 nM
Setting: 8-mer, flanks averaged, mean of replicates
Reading: higher = stronger binding
| Oligonucleotide | E-score |
| --- | --- |
| CCGATGAA | 0.0725 |
| CGCAGTGC | -0.236 |
| ATCGGCAC | -0.114 |
| AATCTGCG | -0.0673 |
| GACCCATA | 0.0787 |
| GCCCCGGC | -0.335 |
| AGCAGGTC | -0.0493 |
| ATGGCGGC | -0.226 |
| ATGGGTTC | -0.142 |
| ACCAACCT | -0.156 |
| CCTAGGAG | -0.124 |
| AAACACCG | 0.0255 |
| TAGTTTCA | 0.276 |
| AGGGGCGA | -0.399 |

Series 2
Target: Ras GTPase-activating protein-binding protein 1, full length (G3BP1, Homo sapiens, UniProt Q13283)
Sequence of UniProt Q13283 (whole entry, looked up): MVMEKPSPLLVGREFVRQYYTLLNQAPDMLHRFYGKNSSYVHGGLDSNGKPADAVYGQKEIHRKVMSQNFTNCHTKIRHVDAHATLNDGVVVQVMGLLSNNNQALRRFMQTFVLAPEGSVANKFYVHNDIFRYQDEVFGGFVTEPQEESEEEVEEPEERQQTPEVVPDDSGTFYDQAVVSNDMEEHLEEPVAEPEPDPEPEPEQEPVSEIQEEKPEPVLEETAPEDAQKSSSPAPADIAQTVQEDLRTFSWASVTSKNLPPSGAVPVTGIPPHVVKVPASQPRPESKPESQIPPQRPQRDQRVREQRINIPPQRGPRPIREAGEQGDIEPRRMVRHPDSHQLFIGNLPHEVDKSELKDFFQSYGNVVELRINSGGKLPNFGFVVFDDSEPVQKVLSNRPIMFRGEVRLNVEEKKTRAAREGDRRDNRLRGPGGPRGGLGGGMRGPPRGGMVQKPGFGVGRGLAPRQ
Method: RNA Bind-n-Seq
Molecule type: RNA
Medium: in vitro
Tested at: 200 nM
Setting: whole 134-nt RNA, ends assumed
With: 150 mM KCl
Baseline: input library
Reading: higher = stronger binding
| Oligonucleotide | log2 enrichment |
| --- | --- |
| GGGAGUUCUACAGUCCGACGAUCAAGUCCUGUGCUACACAUCGUAUGUACCGAAUCGGCCCCCGGGCCCCCGGCCCCCGGAAAGUAUUAUGUUACGCCGUUCGGAUCUGCACUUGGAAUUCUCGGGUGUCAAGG | -0.741 |
| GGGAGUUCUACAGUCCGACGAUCGUCCUGUGCUACACAUCGUAUGUACCGAAUCGGUUUUUGGGUUUUUGGGUUUUUGGGGAAAGUAUUAUGUUACGCCGUUCGGAUCUGCACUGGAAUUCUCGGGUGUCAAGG | -0.587 |
| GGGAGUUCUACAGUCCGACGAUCACCAUGCAGGUGGGCAUCUUUGGGAAGUGGGGCAAGGGGGGGAUAGGGAGGGGGGUAACACUUUGGGAACAGGUGGUCUCAGGUCGUUUCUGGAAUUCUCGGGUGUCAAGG | 1.4 |
| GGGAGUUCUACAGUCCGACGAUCUCAAGUCCUGUGCUACACAUCGUAUGUACCGAAUCGGGUGGGAGGGUUUUUGGGAAAGUAUUAUGUUACGCCGUUCGGAUCUGCACUUCCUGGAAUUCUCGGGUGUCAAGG | 0.602 |
| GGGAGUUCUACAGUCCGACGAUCUAACUUUAGAGGAGGAUCUGAUGGAUAUGGCAGUGGACGUGGAUUCGGGGAUGGCUAUAAUGGGUAUGGAGGAGGACCUGGAGGUGGCAAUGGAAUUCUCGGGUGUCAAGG | 0.183 |
| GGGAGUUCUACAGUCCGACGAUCGCAGGAAGUAAAAACAAAUGGAAAUGCUUCGGAUAGUGGCAGGGUUGGGGGUUGCUAAGGAAAGGGUGGGAUGGGAGUGGGUAAAGAGUUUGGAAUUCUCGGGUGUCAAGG | 0.82 |
| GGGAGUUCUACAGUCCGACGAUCGUCCUGUGCUACACAUCGUAUGUACCGAAUCAAAUUUUUUUAAAUUUUUAAACCCAAAAAAGUAUUAUGUUACGCCGUUCGGAUCUGCACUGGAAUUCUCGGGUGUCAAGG | -0.271 |
| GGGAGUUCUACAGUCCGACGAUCAAGUCCUGUGCUACACAUCGUAUGUACCGAAUCGGGGUUUUGGGUUUUGGUUUUGGAAAGUAUUAUGUUACGCCGUUCGGAUCUGCACUUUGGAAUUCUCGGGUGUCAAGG | -0.789 |
| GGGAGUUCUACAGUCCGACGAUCACCAUGCAGGUGGGCAUCUAAAGGAAGUGGGGCAAGGGGGGGAUAGGGAGGGGGGUAACACUUUGGGAACAGGUGGUCCCAGGUCGUUUCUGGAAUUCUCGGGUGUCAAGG | 1.41 |
| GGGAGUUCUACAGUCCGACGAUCUGGAGAAGGAACGUGAUAAAGAAGUAAGCGAUGAUGAGGCUGAAGAAAAGGAAGACAAAGAAGAAGAAAAAGAAAAAGAAGAGAAAGAGUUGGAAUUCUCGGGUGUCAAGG | 0.0656 |
| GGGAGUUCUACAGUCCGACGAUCAAGUCCUGUGCUACACAUCGUAUGUACCGAAUCGGUUUUUUUGGAAAAAAAGGAGGAAAGUAUUAUGUUACGCCGUUCGGAUCUGCACUUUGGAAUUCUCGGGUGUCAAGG | -1.25 |
| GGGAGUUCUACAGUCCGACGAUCCACAGACAACACGCACCCACACAGACACAGAGGGAAGGGGUUGGGAUGGGGACAGGGUGCACAGCAGGGCGGGGUAGGACCCCAGCCAAAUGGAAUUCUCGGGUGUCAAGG | 1.97 |
| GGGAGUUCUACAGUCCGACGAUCGCAGGAAGUAAAAACAAAUGGAAAUGCUUCGGAUAGUGGCAGGGGUGGGGGUUGAUAAGGAAAGGGUGGGAUGGGAGUGGGUAAAGAGUUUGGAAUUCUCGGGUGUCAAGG | 1.13 |
| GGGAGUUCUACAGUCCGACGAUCAGUCCUGUGCUACACAUCGUAUGUACCGAAUCGGGGUUUUGGGUUUUGGUUUUGGGGAAAGUAUUAUGUUACGCCGUUCGGAUCUGCACUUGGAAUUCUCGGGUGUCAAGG | -0.474 |

Series 3
Target: CCNE1, cyclin fold, Cln2 fusion (human)
Method: yeast growth competition, sequencing
Medium: yeast
Setting: weak parent motif
Baseline: not given
Reading: higher = stronger binding
Starting sequence: WEE1 docking peptide (human); HKTFRKLRLFDTP
| Substitution | normalised enrichment score |
| --- | --- |
| HKTSRKLRLFDTP [F4S] | -0.123 |
| HKTFRKLRLFNTP [D11N] | -0.112 |
| HRTFRKLRLFDTP [K2R] | 0.982 |
| HKTFRKLRLFDGP [T12G] | 1.59 |
| HKTWRKLRLFDTP [F4W] | 1.53 |
| HKTFRKLRLFDYP [T12Y] | -0.245 |
| HKTFVKLRLFDTP [R5V] | -0.0791 |
| HKTFNKLRLFDTP [R5N] | -7.1 |
| HKTFRKLRLFDSP [T12S] | 0.651 |
| HKTFRKLRLFWTP [D11W] | 1.15 |
| HKTFRRLRLFDTP [K6R] | 0.849 |
| DKTFRKLRLFDTP [H1D] | 1.33 |
| HKTERKLRLFDTP [F4E] | 0.0995 |
| HKTFRKLRCFDTP [L9C] | 0.29 |
| HKTFRKLRLMDTP [F10M] | -0.0245 |
| HKTFRKLRLFDTM [P13M] | 1.61 |

Mixed results
| Molecule | target | test | test system | setting | how to read | endpoint | value |
| --- | --- | --- | --- | --- | --- | --- | --- |
| PhoQ, residues 284 288 289 292 302 303 SQSLSM | PhoP, residues 12 14 15 18 19 GQALL (Escherichia coli, UniProt P23836) | Sort-seq, refers to: YFP reporter | E. coli | PhoQ-PhoP variant library, with: 10 µM Mg2+ | baseline: high Mg2+ state, higher = stronger signaling | fold induction | 25.2 |

Some of these lines once more (series 2):
| Oligonucleotide | log2 enrichment |
| --- | --- |
| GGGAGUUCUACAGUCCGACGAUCUAACUUUAGAGGAGGAUCUGAUGGAUAUGGCAGUGGACGUGGAUUCGGGGAUGGCUAUAAUGGGUAUGGAGGAGGACCUGGAGGUGGCAAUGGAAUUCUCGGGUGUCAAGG | 0.183 |
| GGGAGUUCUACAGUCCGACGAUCGCAGGAAGUAAAAACAAAUGGAAAUGCUUCGGAUAGUGGCAGGGUUGGGGGUUGCUAAGGAAAGGGUGGGAUGGGAGUGGGUAAAGAGUUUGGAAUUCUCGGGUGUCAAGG | 0.82 |
| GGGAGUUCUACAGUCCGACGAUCGUCCUGUGCUACACAUCGUAUGUACCGAAUCAAAUUUUUUUAAAUUUUUAAACCCAAAAAAGUAUUAUGUUACGCCGUUCGGAUCUGCACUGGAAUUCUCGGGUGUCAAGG | -0.271 |
| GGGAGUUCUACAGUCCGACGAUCAAGUCCUGUGCUACACAUCGUAUGUACCGAAUCGGGGUUUUGGGUUUUGGUUUUGGAAAGUAUUAUGUUACGCCGUUCGGAUCUGCACUUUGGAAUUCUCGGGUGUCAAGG | -0.789 |
| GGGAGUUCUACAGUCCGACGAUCACCAUGCAGGUGGGCAUCUAAAGGAAGUGGGGCAAGGGGGGGAUAGGGAGGGGGGUAACACUUUGGGAACAGGUGGUCCCAGGUCGUUUCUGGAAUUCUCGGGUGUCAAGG | 1.41 |
| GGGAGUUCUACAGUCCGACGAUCUGGAGAAGGAACGUGAUAAAGAAGUAAGCGAUGAUGAGGCUGAAGAAAAGGAAGACAAAGAAGAAGAAAAAGAAAAAGAAGAGAAAGAGUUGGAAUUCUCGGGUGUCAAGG | 0.0656 |
